Published values of several laboratories.
Compare with care: the assays were run in different laboratories. Values joined by “and” are separate records of one study, mostly repeats; a detail may differ. ± gives the spread as reported.
Sequence of UniProt Q70CQ1 (whole entry, looked up): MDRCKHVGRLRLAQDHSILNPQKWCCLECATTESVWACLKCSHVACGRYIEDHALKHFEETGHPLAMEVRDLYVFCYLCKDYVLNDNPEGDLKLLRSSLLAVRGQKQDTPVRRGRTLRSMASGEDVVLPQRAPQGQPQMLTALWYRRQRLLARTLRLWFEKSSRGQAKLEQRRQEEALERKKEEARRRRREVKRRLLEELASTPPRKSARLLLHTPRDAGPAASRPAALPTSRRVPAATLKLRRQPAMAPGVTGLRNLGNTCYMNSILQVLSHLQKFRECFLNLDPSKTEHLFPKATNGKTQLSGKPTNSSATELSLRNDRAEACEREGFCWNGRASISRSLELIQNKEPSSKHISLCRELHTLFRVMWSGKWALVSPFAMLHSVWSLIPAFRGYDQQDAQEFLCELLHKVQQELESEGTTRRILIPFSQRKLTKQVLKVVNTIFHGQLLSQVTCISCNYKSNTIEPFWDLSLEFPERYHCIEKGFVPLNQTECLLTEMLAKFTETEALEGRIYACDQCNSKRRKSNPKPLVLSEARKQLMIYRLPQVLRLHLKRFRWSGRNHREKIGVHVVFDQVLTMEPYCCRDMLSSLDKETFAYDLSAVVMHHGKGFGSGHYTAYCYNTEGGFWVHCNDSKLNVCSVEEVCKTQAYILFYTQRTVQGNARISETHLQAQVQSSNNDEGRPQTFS
Sequence of UniProt Q9Y2K6 (whole entry, looked up): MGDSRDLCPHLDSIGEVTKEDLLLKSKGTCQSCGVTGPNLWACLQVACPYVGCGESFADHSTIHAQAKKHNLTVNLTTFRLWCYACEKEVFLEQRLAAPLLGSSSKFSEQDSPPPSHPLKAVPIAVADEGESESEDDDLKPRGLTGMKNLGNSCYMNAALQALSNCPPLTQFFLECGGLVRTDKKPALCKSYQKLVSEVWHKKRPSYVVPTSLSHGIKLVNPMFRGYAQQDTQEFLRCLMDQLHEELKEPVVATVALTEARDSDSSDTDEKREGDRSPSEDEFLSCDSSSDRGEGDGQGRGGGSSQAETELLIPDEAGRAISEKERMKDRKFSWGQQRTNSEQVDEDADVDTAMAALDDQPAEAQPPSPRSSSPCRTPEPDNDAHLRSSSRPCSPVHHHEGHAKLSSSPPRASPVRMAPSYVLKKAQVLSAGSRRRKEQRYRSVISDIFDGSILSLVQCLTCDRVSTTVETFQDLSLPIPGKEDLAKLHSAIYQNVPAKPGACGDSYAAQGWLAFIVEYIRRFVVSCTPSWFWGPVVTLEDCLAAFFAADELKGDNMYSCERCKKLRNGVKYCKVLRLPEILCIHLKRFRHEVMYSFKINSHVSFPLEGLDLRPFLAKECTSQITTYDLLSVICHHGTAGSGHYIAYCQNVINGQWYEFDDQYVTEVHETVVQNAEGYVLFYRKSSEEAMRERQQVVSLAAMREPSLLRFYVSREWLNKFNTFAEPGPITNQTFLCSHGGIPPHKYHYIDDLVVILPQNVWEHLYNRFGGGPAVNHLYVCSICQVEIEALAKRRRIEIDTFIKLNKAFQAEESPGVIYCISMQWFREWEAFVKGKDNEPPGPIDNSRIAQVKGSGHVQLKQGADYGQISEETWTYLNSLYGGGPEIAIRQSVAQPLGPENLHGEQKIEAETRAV

Structure (SMILES)	tested on	test	test system	setting	scale	quantity	result
CCOc1c([C@H](C)n2nc(C)c3c(N)ncnc32)cc(Cl)c(F)c1[C@@H]1CNC(=O)C1			patients with B-cell malignancies, plasma	oral, 20 mg, day 15, all cohorts, monotherapy		Cmax	1740 nM
[O]=[Co].[O]=[Co][O][Co]=[O]			rat, female, urine, 24-h collection	oral gavage, single, 300 mg/kg (220 mg Co/kg), day 3, vehicle 0.5% HPMC		creatinine-corrected cobalt concentration	0.0266 µg/µmol creatinine
Cc1cc(C)c(CNC(=O)c2cc(Cl)c3c(c2C)O[C@@](C)([C@H]2CC[C@H](N(C)C)CC2)O3)c(=O)[nH]1		CTCAE v4.0	human, relapsed/refractory NHL	oral, 200 mg once daily, overall, onset after cycle 1 day 1		grade ≥3 TEAE patients	66.7%
O=C(O)CCc1nc2ncccn2n1	Ubiquitin carboxyl-terminal hydrolase 20, ZnF-UBD domain (USP20, Homo sapiens, UniProt Q9Y2K6)					Kd	110 µM
CCOC(=O)N1C[C@@H](c2ccc(C(F)(F)F)cc2)N[C@@H](c2ccc(N3CCCC3)cc2)C1		shake-flask, 1-octanol/buffer		pH 7.4		logD	> 4.7
CN1CCCC1CCNS(=O)(=O)c1ccc2c(c1)CN(CC1CCCCC1)CC2 (stereo not shown)			wild-type mouse, pons/cerebellum	oral in diet, 0.0002% in diet, 6 months		Cmin	0.955 ng/g
CC(C)NCCCC[C@@H]1NC(=O)[C@H](Cc2ccc(O)cc2)NC(=O)[C@H](Cc2ccccc2)NC(=O)CC[C@H](C(=O)N[C@@H](CCCCNC(C)C)C(=O)N[C@@H](CCCCNC(=O)[C@H](CCC(=O)O)NC(=O)[C@H](CCC(=O)O)NC(=O)[C@H](CCC(=O)O)NC(=O)CN2CCN(CC(=O)O)CCN(CC(=O)O)CCN(CC(=O)O)CC2)C(N)=O)NC(=O)CNC(=O)[C@H](Cc2ccc3ccccc3c2)NC(=O)[C@@H](CCCNC(=N)N)NC1=O [gallium-68 labelled]			mouse with Daudi xenograft, spleen	intravenous, 1 h		tissue uptake	0.47 %ID/g
CC(C)(C(=O)N1CCOc2c(C#N)cncc2C1)C(F)F		measured: skin abrasion	human	oral, 20 mg once daily, 14 days, multiple ascending dose		subjects with adverse event	0%
O=C(O)CN1CCCN2CCN(CC(=O)O)CCCN(CC1)Cc1cccc(n1)C2			64Cu complex	2 h, pH 7.4, 37 °C, added: DOTA excess		intact complex	95%
O=C(Nc1ccc(Cl)cc1)Nc1ccc(Cl)c(Cl)c1		reverse phase LC, C18	acetonitrile gradient, 0.1% formic acid	converted from retention time	relative to: Valko CHI standards	chromatographic hydrophobicity index	122
CCC[C@H](C)[C@H]1CN(C(=O)OCC)C[C@@H](c2ccc(C(C)(C)C)cc2)N1		shake-flask, 1-octanol/buffer		pH 7.4		logD	> 4.7
O=C(O)CN1CCCN2CCN(Cc3ccccc3)CCCN(CC1)Cc1cccc(n1)C2			64Cu complex in rat plasma	0.5 h, 37 °C		intact complex	99%
COc1cc2nccc(Oc3ccc(NC(=O)c4cc5c(n(-c6ccccc6)c4=O)CCCC5=O)nc3)c2cc1OC			relapsed or refractory AML	oral, all dose levels		grade ≥3 Pneumonia patients	25%
CNS(=O)(=O)Cc1ccc2[nH]cc(CCN(C)C)c2c1			octanol/buffer	67 µM, pH 11		logD	0.88
C=CCn1c(=O)c2cnc(Nc3ccc(N4CCN(C)CC4)cc3)nc2n1-c1ccc2c(n1)[C@@](O)(CC)CC2			A-427, female NOD/SCID mouse xenograft, plasma	oral, 40 mg/kg once daily		AUC(0-24)	14200 ng·h/mL
CCN1CCN(Cc2ccc(Nc3ncc(F)c(-c4cc(F)c5nc6n(c5c4)[C@H](C)CCC6)n3)nc2)CC1			human, Phase Ib patients, plasma	400 mg, single dose, median, added: fulvestrant		Tmax	9.97 h
CNC(=O)c1ccc(-c2cnc3ncc(Cc4ccc5ncccc5c4)n3n2)cc1F			human mild hepatic impairment	oral, 200 mg single dose, adjusted geometric mean		unbound Cmax	38.8 ng/mL
Cc1ccc([C@@H]2O[C@H](CO)[C@@H](O)[C@H](O)[C@H]2O)cc1Cc1ccc(-c2ccc(F)cc2)s1			Japanese type 2 diabetes patients	400 mg, day 1, 24 h urine collection	relative to: baseline	urinary magnesium excretion change	-37.7 mg
Cc1cc(-c2nccc3c2ccn3CC(=O)Nc2ccc(-c3cnccn3)cn2)ccn1			human	20 mg once daily, multiple ascending dose		subjects with serious TEAE	0%
Fc1ccc(-c2nc(-c3c(Cl)cccc3Cl)[nH]c2-c2ccncc2)cc1		PAMPA		16 h		membrane retention	> 90%
CC(C)C[C@H](NC(=O)[C@@H](Cc1c[nH]c2ccccc12)NC(=O)[C@H](Cc1ccc(O)cc1)NC(=O)[C@H](CO)NC(=O)[C@H](Cc1c[nH]c2ccccc12)NC(=O)[C@H](Cc1c[nH]cn1)NC(=O)[C@@H]1CCC(=O)N1)C(=O)N[C@@H](CCCNC(=N)N)C(=O)N1CCC[C@H]1C(=O)NCC(N)=O			Chinese CPP children	intramuscular, 22.5 mg, 12 months, day 1, month 6		patients, drug-related Dermatitis TEAEs	1.5%
COc1ccc(OCC(=O)Nc2cc(-c3nn4c(C)nnc4s3)ccc2C)cc1			octanol/buffer	pH 7.4		logD	2.84

Structure (SMILES)	tested on	test	test system	setting	scale	quantity	result
CCOc1c([C@H](C)n2nc(C)c3c(N)ncnc32)cc(Cl)c(F)c1[C@@H]1CNC(=O)C1			rat plasma	800 ng/mL, 4 h, 10 °C, autosampler	relative to: nominal concentration	stability relative error	11.4%
CCN1/C(=C/C(C)=O)Sc2ccc(F)cc21			cynomolgus monkey	oral, 10 mg/kg, 4 h post-dose	relative to: pre-dose	heart rate change	91.3 ± 23.6%
COC(=O)c1ccc([C@@H]2COC[C@H](c3ccc(NC(C)=O)cc3)N2)cc1		shake-flask, 1-octanol/buffer		pH 7.4		logD	> 4.7
CN(CCC#N)C1CCN(C(=O)Cn2cc(NC(=O)c3cnn4cccnc34)c(-c3cc(Cl)ccc3OC(F)F)n2)CC1			human, single ascending dose	15 mg, day 4	relative to: baseline	LDL cholesterol change	0 mg/dL
C[C@H]1OC[C@@H](c2ccc(-c3ccccn3)cc2)N[C@@H]1c1ccc(F)cc1Cl		shake-flask, 1-octanol/buffer		pH 7.4		logD	> 4.7
N[C@H](CCSSCC[C@@H](N)C(=O)O)C(=O)O (racemic)		binding, equilibrium dialysis LC-MS		5 µM, thermostabilized A2AR-BRIL construct	relative to: no-protein control, direction not given	z-scored log2 fold change	0.22
COc1nc(-c2cc(C)c(N[C@@H](C)c3c(F)cc(F)cc3F)nn2)ccc1-n1cnc(C)c1			C57BL/6J mice, male, brain	oral, 10 mg/kg daily for 9 days, 4 h after last dose		brain concentration	1510 ng/g
OC[C@H]1O[C@@H](c2ccc(Cl)c(Cc3ccc(O[C@H]4CCOC4)cc3)c2)[C@H](O)[C@@H](O)[C@@H]1O			Japanese type 1 diabetes patients, blood	10 mg, day 28	relative to: baseline	change in Magnesium	0.1 mEq/L
CC(C)n1c(Nc2cccnc2)nc2cnc(Nc3ccc(N4CCN(C)CC4)cc3)nc21		measured: nervous system disorders (SOC)	healthy human, male	oral, dose not given, CTCAE grade 1-3		subjects with TEAE	4.8%
CCCn1cc(C)c2c(=O)[nH]c(-c3cc(S(=O)(=O)N4CCN(CC)CC4)ccc3OCC)nc21			human			flushing incidence	38.9%
C=CC(=O)NC1CCN(c2ncc3ncnc(Nc4ccc(Oc5ccc6c(c5)ncn6C)c(C)c4)c3n2)CC1			healthy male volunteers	oral, 60 mg, 2 weeks		subjects with drug-related adverse events	13%
CN(CCC(=O)O)C(=O)c1ccc2c(c1)CC[C@@H]1[C@@H]2CC[C@]2(C)C(c3cncc(F)c3)=CC[C@@H]12			premenopausal women, endometriosis pain, serum	60 mg twice daily, visit 6, mean	relative to: baseline	total bilirubin change	0.682 mg/dL
CC(C)(F)C[C@H](N[C@@H](c1ccc(-c2ccc(S(C)(=O)=O)cc2)cc1)C(F)(F)F)C(=O)NC1(C#N)CC1			MES buffer	100 µM, 23 h, pH 5.5, 37 °C, added: cysteine 10 mM		cysteine adduct formation	< 1%
N#Cc1ccc2c(c1)[C@H]1CCCN(C(=O)c3ccc4[nH]cnc4c3)[C@H]1C2			human, female	40 mg, day 15		DHEA-S level	7.2 µmol/L
CCN1CCN(Cc2ccc(NC(=O)c3ccc(C)c(NC(=O)c4cncc(-c5cccs5)c4)c3)cc2C(F)(F)F)CC1		LC-MS/MS	C57BL/6 mouse, plasma	intraperitoneal, 30 mg/kg single dose, 0.5 h		plasma concentration	649 ng/mL and 822 ng/mL and 676 ng/mL
Cc1sc2ncn(CC(=O)O)c(=O)c2c1C	Ubiquitin carboxyl-terminal hydrolase 49, ZnF-UBD domain (USP49, Homo sapiens, UniProt Q70CQ1)					Kd	> 1000 µM
C/C=C/C[C@@H](C)C(=O)[C@H]1C(=O)N[C@@H](C(C)C)C(=O)N(C)CC(=O)N(C)[C@@H](CC(C)C)C(=O)N[C@@H](C(C)C)C(=O)N(C)[C@@H](CC(C)C)C(=O)N[C@@H](C)C(=O)N[C@H](C)C(=O)N(C)[C@@H](CC(C)C)C(=O)N(C)[C@@H](CC(C)C)C(=O)N(C)[C@@H](C(C)C)C(=O)N1C			Sprague Dawley rat, plasma	intravenous infusion, 8.0 mg/h/kg, 4 h, 4.5 h constant infusion		total plasma concentration	32400 ng/mL
Cc1ccc(C)c(OCCCC(C)(C)C(=O)O)c1		HPLC C18 retention		pH 7.4	relative to: calibration standards	chromatographic hydrophobicity index	73.7
O=C(Nc1nc2cccc(-c3ccc(CN4CCS(=O)(=O)CC4)cc3)n2n1)C1CC1		measured: regurgitation	rheumatoid arthritis patients	oral, 300 mg once daily, 4 weeks, any relatedness		treatment-emergent adverse events	5%
Cc1cc(Nc2cc3ncccc3c(N[C@@H]3C[C@H]4CC[C@@H](C3)N4CCC#N)n2)n[nH]1			healthy human subjects	oral, 10 mg, 2 weeks, single ascending dose		skin subcutaneous disorders incidence	0%
CCOC(=O)[C@H](CCc1ccccc1)N[C@@H](C)C(=O)N1[C@H](C(=O)O)C[C@H]2CCCC[C@@H]21			human plasma	30 pg/mL, 3 cycles at -20 °C	relative to: nominal	freeze-thaw stability	110 ± 10.6%
